Published values pooled from the literature.
Each line is one published result; not all experiments were run side by side. Several values in a cell are separate wells, animals, samples, runs or records. Numbers after ± are the reported error.
Chain of UniProt P08684 (whole entry, looked up): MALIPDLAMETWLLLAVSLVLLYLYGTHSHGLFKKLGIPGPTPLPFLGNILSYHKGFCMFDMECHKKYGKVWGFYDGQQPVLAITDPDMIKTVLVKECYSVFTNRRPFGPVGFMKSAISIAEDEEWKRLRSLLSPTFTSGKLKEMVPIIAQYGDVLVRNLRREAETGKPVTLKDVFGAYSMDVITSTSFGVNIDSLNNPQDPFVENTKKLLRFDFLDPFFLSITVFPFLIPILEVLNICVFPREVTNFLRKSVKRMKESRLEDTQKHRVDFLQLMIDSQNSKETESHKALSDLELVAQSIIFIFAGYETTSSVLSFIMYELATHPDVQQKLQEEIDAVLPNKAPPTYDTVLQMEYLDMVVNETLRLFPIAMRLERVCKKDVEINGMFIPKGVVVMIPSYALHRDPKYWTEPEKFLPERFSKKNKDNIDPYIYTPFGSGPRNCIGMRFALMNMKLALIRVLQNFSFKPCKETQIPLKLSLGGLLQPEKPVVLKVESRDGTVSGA
Chain of UniProt P10632 (whole entry, looked up): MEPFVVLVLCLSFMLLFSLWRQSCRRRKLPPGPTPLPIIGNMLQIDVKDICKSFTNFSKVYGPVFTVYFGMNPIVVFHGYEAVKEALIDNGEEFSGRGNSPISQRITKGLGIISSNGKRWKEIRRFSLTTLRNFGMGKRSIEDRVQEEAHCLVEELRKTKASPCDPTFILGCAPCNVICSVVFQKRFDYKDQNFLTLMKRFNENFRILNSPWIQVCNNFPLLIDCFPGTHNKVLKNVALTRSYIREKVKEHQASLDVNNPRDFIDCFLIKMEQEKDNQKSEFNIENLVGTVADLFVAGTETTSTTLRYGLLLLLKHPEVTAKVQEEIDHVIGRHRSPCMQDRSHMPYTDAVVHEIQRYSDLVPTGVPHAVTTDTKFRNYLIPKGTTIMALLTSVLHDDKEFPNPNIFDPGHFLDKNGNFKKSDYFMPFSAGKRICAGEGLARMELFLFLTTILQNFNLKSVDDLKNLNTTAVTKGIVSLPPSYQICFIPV

SMILES | tested on | test | system | conditions | scale | endpoint | result
CCN1/C(=C/C(C)=O)Sc2ccc(F)cc21 | – | – | cynomolgus monkey | oral, 30 mg/kg, 6 h post-dose | – | QT interval | 278 ± 42 ms
C[C@@]1(c2cc(NC(=O)c3ccc(C#N)cn3)ccc2F)C=CSC(N)=N1 | – | – | elderly humans, both sexes, plasma | oral, 3 mg single dose | – | dose-normalised Cmax | 5.72 ng/mL
CC[C@H](C)[C@@H]([C@@H](CC(=O)N1CCC[C@H]1[C@H](OC)[C@@H](C)C(=O)N[C@@H](Cc1ccccc1)C(=O)NCCCO)OC)N(C)C(=O)[C@@H](NC(=O)[C@H](C(C)C)N(C)C)C(C)C | – | – | human liver microsomes 1 mg/mL | 1 µM, with: ketoconazole and CYP3cide | – | metabolism via other pathways | ≤ 11.9%
Cc1cc(Nc2ncnc3ccc(NC4=NC(C)(C)CO4)cc23)ccc1Oc1ccn2ncnc2c1 | Cytochrome P450 2C8 (CYP2C8, Homo sapiens, UniProt P10632) | – | human, plasma | oral, 300 mg single dose, day 1, arithmetic mean | – | CL/F | 129 L/h
CNC(=O)c1ccc(-c2cnc3ncc(Cc4ccc5ncccc5c4)n3n2)cc1F | – | measured: Pyrexia | cancer patients | oral, dose not given, dose escalation, grade 3-4 | – | patients with adverse event | 0%
CC(C)[C@@H](CS(=O)(=O)C(C)C)N1C(=O)[C@@](C)(CC(=O)O)C[C@H](c2cccc(Cl)c2)[C@H]1c1ccc(Cl)cc1 | – | – | FVB mice Abcb1a/b knockout, plasma | intravenous, 20 mg/kg | – | AUC(0-inf) | 37100 ± 2780 ng·h/mL
COc1cccc(-c2n[nH]c(SCc3ccccn3)n2)c1OC | – | – | Sprague-Dawley rats, both sexes | oral dietary, 30 mg/kg/day, day 7, 1 h | – | plasma concentration | 589 ng/mL
CC[C@H]1[C@@H](O)[C@@H]2[C@H](CC[C@]3(C)[C@@H]([C@H](C)CCNC(=O)NS(=O)(=O)c4ccc(C(C)(C)C)cc4)CC[C@@H]23)[C@@]2(C)CC[C@@H](O)C[C@@H]12 | Cytochrome P450 3A4 (CYP3A4, Homo sapiens, UniProt P08684) | – | human, plasma | mean, with: fluconazole | – | CL/F | 3.52 L/h
Cc1ccc([C@@H]2O[C@H](CO)[C@@H](O)[C@H](O)[C@H]2O)cc1Cc1ccc(-c2ccc(F)cc2)s1 | – | – | Japanese type 2 diabetes patients | 25 mg, day 5, 24 h urine collection | relative to: baseline | urinary magnesium excretion change | 8.5 mg
Cc1ccc(Sc2ccccc2N2CCNCC2)c(C)c1 | – | – | healthy adult men | oral, 10 mg single dose, treatment-emergent adverse events | – | vomiting incidence | 0%
N#CC(Cc1ccc(O)cc1)c1ccc(O)cc1 (centres unmarked) | – | – | rat, Long-Evans, female, serum | subcutaneous, 2 mg/kg single dose | – | aglycone share of AUC(0-inf) | 13%
CC(C)(C)c1ccc(C(O)CCCN2CCC(C(O)(c3ccccc3)c3ccccc3)CC2)cc1 (centres unmarked) | – | – | male Hartley guinea pigs, anaesthetized | intravenous, 0.3 mg/kg group, baseline before infusion | – | mean blood pressure | 34 ± 0.2 mmHg
C[C@H]1CNC(=O)c2cnn3ccc(nc23)N[C@H](C)c2cc(F)ccc2O1 | – | – | Balb/c nude mice, female, plasma | oral, 15 mg/kg twice daily, 1 h, steady state | – | unbound concentration | 58 ± 19 nM
CCn1cc(C(=O)N2CCOCC2)c(=O)c2cc(NC3Cc4ccccc4C3)cnc21 | – | – | human, fed | oral suspension, 600 mg single dose, arithmetic mean | – | AUC(0-inf) | 24700 ng·h/mL
Cc1cc(-c2nccc3c2ccn3CC(=O)Nc2ccc(-c3cnccn3)cn2)ccn1 | – | – | human | SAD part, single 7 mg dose | – | subjects with any grade 2 TEAE | 0%
CC(=O)NCCc1c[nH]c2ccc(O)cc12 | – | sulfation, substrate | pooled human lung cytosol | 50 µM, 30 min, with: 50 mM NaF | – | specific activity | 1.29 ± 0.52 pmol/min/mg
CC(C)Nc1ccnc(Nc2cccc(-c3cccnc3)c2)n1 | – | – | MDCKII-WT cells | 10 µM, pH 7.4 | – | Papp (A to B) | 75 ± 39.1 ×10⁻⁶ cm/s
CCO[C@H]1CCN(Cc2c(OC)cc(C)c3[nH]ccc23)[C@H](c2ccc(C(=O)O)cc2)C1 | – | – | PNH patients, active haemolysis | oral, 25 mg, treatment | – | incidence free thyroxine increase | 0%
O=C(Nc1nc2cccc(-c3ccc(CN4CCS(=O)(=O)CC4)cc3)n2n1)C1CC1 | – | measured: thrombocytopenia | rheumatoid arthritis patients | oral, 200 mg once daily, 4 weeks, any relatedness | – | treatment-emergent adverse events | 0%
COc1ccc(-c2csc(NC(=O)c3ccc(C(=O)Nc4nc(-c5ccc(OC)c(OC)c5)cs4)s3)n2)cc1OC | – | – | sheep erythrocytes | 1 h, pH 7.5 | – | maximum haemolysis | 11.7%
O=C(O)CCC(=O)O.[2H]C([2H])([2H])Oc1cc(C)c2[nH]ccc2c1CN1CC[C@@H](C2CC2)C[C@H]1c1ccc(C(=O)O)cc1 | – | multiple ascending dose | healthy Chinese subjects | 100 mg twice daily | – | subjects with elevated ALT TEAE | 12.5%
CC(C)NCC(O)c1ccc(NS(C)(=O)=O)cc1 (racemic) | – | – | male Hartley guinea pigs, anaesthetized | intravenous, 3 mg/kg over 10 min, after infusion | – | mean blood pressure | 34 ± 0.3 mmHg
Cc1cc(C(=O)NC(C)(C)COc2cccc3c2C(N)=NS(=O)(=O)N3)cc(C)n1 | – | LC-MS metabolite profiling | Sprague-Dawley rat, both sexes, plasma | oral, 100 mg/kg of parent drug, 0.25 (unit not given) | higher = more metabolite | plasma peak area | 6.94e+06 a.u.
CC(C)OC(=O)[C@@H](C)N[P@@](=O)(OC[C@H]1O[C@@H](n2ccc(=O)[nH]c2=O)[C@](C)(Cl)[C@@H]1O)Oc1ccccc1 | – | – | human | oral, dose not given, with: itraconazole | relative to: compound alone | intestinal clearance decrease | 55.6%
Cc1cc(C)cc(C(=O)c2c(C(C)C)c(=O)[nH]c(=O)n2Cc2ccnc(N)c2)c1 | – | HPLC-DAD, one-compartment model | rat Sprague-Dawley, male, plasma | intravenous bolus, 20 mg/kg | – | C0 | 202 ± 182 ng/mL

SMILES | tested on | test | system | conditions | scale | endpoint | result
CC(C)c1nc(N(C)S(C)(=O)=O)nc(-c2ccc(F)cc2)c1/C=C/[C@@H](O)C[C@@H](O)CC(=O)O | – | – | Wistar albino rat, both sexes, plasma | oral, 20 mg/kg, 0.5 h | – | plasma concentration | 513 ng/mL
Cc1ccc(C(=O)Nc2ccnc(S(N)(=O)=O)c2)c(N2CCCC(F)(F)CC2)n1 | – | – | rhesus monkey, plasma | oral, 1 mg/kg | – | unbound plasma concentration | 19 to 94 nM
Cc1nc(-c2ccc(OCC(C)C)c(C#N)c2)sc1C(=O)O | – | – | healthy Chinese subjects | oral, 40 mg, fed | – | subjects with haemoglobin decreased | 5%
CCN1CCN(Cc2ccc(NC(=O)c3ccc(C)c(NC(=O)c4cncc(-c5cccs5)c4)c3)cc2C(F)(F)F)CC1 | – | – | C57BL/6 mouse, plasma | intraperitoneal, 10 mg/kg, single dose | – | Vz/F | 24 L/kg
Cc1cc(Nc2ccc(S(F)(F)(F)(F)F)cc2)n2nc(C(C)(F)F)nc2n1 | Plasmodium falciparum | 12-lead ECG | malaria patients | oral, 250 mg, increase above 30 ms | – | patients with QTcF increase | 33.3%
CNCCOC12CC3(C)CC(C)(CC(Cn4ncc(-c5ccc(N6CCc7cccc(C(=O)Nc8nc9ccccc9s8)c7C6)nc5C(=O)O)c4C)(C3)C1)C2 | – | – | beagle dog, male, anaesthetised | intravenous bolus, 0.03 mg/kg, 10 min | relative to: baseline | QTcV interval change | -7 ms
CCC(CC)C(=O)Oc1cccc(C(O)CCN)c1.O=CO (centres unmarked) | – | scotopic ERG | BALB/cJ mice | intraperitoneal, 10 mg/kg, 4 h dark adaptation, with: 10,000 lx photobleach, 10 min | – | ERG b-wave amplitude | 195 µV and 48 µV and 60 µV and 112 µV and 168 µV and 133 µV
N#Cc1ccc2c(c1)[C@H]1CCCN(C(=O)c3ccc4[nH]cnc4c3)[C@H]1C2 | – | – | human, female | 160 mg, day 7 | – | DHEA-S level | 4.4 µmol/L
Cc1cccc(CNC(=O)c2cn(CCNC(=O)c3ccccc3Sc3c([N+](=O)[O-])ncn3C)c3cc4c(cc3c2=O)OCO4)n1 | – | – | human, whole blood | 1 µM, 1.5 h | – | remaining compound | 89.6%
O=C(O)CCCOc1ccc([18F])cc1-c1cc(-c2ccccc2C(F)(F)F)n(-c2ccccc2)n1 | – | gamma counting | male ddY mice, muscle | intravenous, 2.1 MBq, 30 min | – | radioactivity uptake | 1.15 ± 0.09 SUV
COc1cc2[nH]c(C)c(-c3ccco3)c(=O)c2cc1Cl | – | – | PAMPA | pH 7.4 | – | Papp | < 5 ×10⁻⁶ cm/s
COc1cc2c3c(n(CCCN4CCOCC4)c(=O)c2cc1OC)-c1cc2c(cc1C3=O)OCO2 | – | – | beagle dog, female, plasma | intravenous infusion, 10 mg/m^2, 1 h infusion, vehicle 1 | – | CL | 38.9 ± 6.3 L/h/m²
CCCCCCCOc1ccc(CCC(N)(CO)CO)cc1C(F)(F)F.Cl | – | – | healthy men, plasma | oral, 0.75 mg, day 21 | – | AUC(0-tau) | 95.7 ng·h/mL
O=[N+]([O-])c1cnc2ccccc2c1O | – | – | sheep erythrocytes | 1 h, pH 7.5 | – | maximum haemolysis | 2.5%
Cn1cc(-c2ccc(-c3cncc(Cl)c3N3CCC4(CCNC4=O)CC3)cc2)cn1 | COLO 205 | gene expression, microarray, measured: PLK2 mRNA | – | concentration not given, 6 h | relative to: untreated cells | log2 fold change | 2.11
CNC(=O)c1ccc(-c2cnc3ncc(Cc4ccc5ncccc5c4)n3n2)cc1F | – | – | Japanese patients | oral, 400 mg, any grade | – | Vomiting dose reduction/interruption | 4%
COc1cc2[nH]c(C)c(-c3ccccn3)c(=O)c2cc1Cl | – | – | PAMPA | pH 7.4 | – | Papp | 38 ×10⁻⁶ cm/s
COc1ncc(-c2nc3c(n2C(C)C)[C@H](c2ccc(Cl)cc2)N(c2cc(Cl)cn(C)c2=O)C3=O)c(OC)n1 | – | LC-MS/MS | human, plasma | oral, 12.5 mg, cycle 2 day 1, high-dose arm | – | Cmax | 121 ng/mL
COCCc1ccc(OCC(O)CNC(C)C)cc1 (centres unmarked) | – | – | n-hexane/tris buffer partitioning | pH 8, free base | – | pKa | 9.784 ± 0.002
CCN(CCO)CCCC(C)Nc1ccnc2cc(Cl)ccc12 (centres unmarked) | – | – | human patient | 200 mg, steady state | – | CLss/F | 23.9 L/h and 14.3 L/h and 9.02 L/h
C[C@H](CS)C(=O)N1CCC[C@H]1C(=O)O | – | – | male Hartley guinea pigs, anaesthetized | intravenous, 30 mg/kg over 10 min, after infusion | – | mean blood pressure | 22 ± 0.2 mmHg
COc1cc2[nH]c(C)c(-c3ccc(N(C)C)nc3)c(=O)c2cc1Cl | – | – | PAMPA | pH 7.4 | – | Papp | 137 ×10⁻⁶ cm/s
COc1ccc(C[C@@H](C)[C@@H](C)Cc2ccc(OC)c(OC)c2)cc1OC | – | – | beagle dog male, plasma | oral, 1000 mg/kg/day, day 1 | – | Cmax | 2770 ± 548 ng/mL
N[C@@H](Cc1cc(I)c(Oc2ccc(O)c(I)c2)c(I)c1)C(=O)O | – | – | – | – | – | pKa (acidic) | 3.9
O=C(/C=C/c1ccccc1)Nc1ccc(C(=O)Nc2nccs2)cc1 | – | – | sheep erythrocytes | 1 h, pH 7.5 | – | maximum haemolysis | 17.6%
